Assay results collected from several papers.
A part holds a random share of what one study measured. Positions count from the first letter of the parent shown.

Set 1
Target: Myc proto-oncogene protein, bHLH-zipper, MAX partner unstated (MYC, Homo sapiens, UniProt P01106, residues 368-449)
Method: protein-binding microarray
Form: double-stranded DNA, one strand shown
Matrix: in vitro
Tested at: not given
Setting: k-mer, scored over probes, only values ≥0.25
Reading: higher = stronger binding
`CATGGAAG` has an E-score of 0.273.
`ATGCACGG` gave an E-score of 0.293.
For `CATGTCAC`, the E-score was 0.368.
The E-score of `CTCGTGCA` is reported as 0.367.
With `CCGCACGC` the E-score was 0.384.
With `CGTGTAGC` the E-score was 0.33.
The E-score of `CACACATG` is reported as 0.434.
For `CATGGCTC`, the E-score was 0.338.

Set 2
Change: L164F
Target: ABI1, truncated, D143A, DHFR fusion (Arabidopsis thaliana)
Method: DHFR PCA, deep sequencing
Matrix: yeast
Setting: methotrexate growth selection, single substitutions
Baseline: wild-type fitted maximum
Reading: higher = stronger binding
Starting sequence: PYL1, truncated, DHFR fusion (Arabidopsis thaliana); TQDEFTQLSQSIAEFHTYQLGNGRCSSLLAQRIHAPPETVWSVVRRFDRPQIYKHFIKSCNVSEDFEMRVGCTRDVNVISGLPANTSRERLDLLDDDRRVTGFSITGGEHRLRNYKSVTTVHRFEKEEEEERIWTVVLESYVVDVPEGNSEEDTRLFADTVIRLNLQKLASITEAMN; partner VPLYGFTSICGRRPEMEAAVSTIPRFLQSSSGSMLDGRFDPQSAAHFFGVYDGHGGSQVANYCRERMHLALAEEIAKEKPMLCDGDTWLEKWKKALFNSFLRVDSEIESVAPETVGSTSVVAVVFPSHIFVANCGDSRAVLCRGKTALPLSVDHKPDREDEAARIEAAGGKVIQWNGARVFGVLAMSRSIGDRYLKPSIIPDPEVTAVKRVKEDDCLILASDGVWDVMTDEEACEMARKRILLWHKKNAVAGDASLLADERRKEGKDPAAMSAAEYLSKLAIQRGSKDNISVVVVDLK
It gave 97.7% for “relative binding score” (added: (+)-ABA 2500 µM).
The “relative binding score” was -5.52% (added: (+)-ABA 0 µM).
It gave 4.69% for “relative binding score” (added: (+)-ABA 0.032 µM).
It gave 79.8% for “relative binding score” (added: (+)-ABA 4.8 µM).
The “relative binding score” was 7.19% (added: (+)-ABA 0.0091 µM).
The “relative binding score” was 11.2% (added: (+)-ABA 0.11 µM).

Further values, each from its own experiment
`KRT2 (Homo sapiens, UniProt P35908)`: interaction screen “cross-linked” (KRT77 (Homo sapiens, UniProt Q7Z794); cross-linking MS; hits only).
`NS(=O)(=O)c1cc(NC(=O)C2(c3ccccc3Cl)CC2)ccc1Oc1cccc(Cl)c1` has an inhibition of -8.97% (ADRA1B (Homo sapiens, UniProt P35368); cell-free assay; 10 µM).

Repeated from above (further values, each from its own experiment):
`KRT2 (Homo sapiens, UniProt P35908)`: interaction screen “cross-linked” (KRT77 (Homo sapiens, UniProt Q7Z794); cross-linking MS; hits only).
`NS(=O)(=O)c1cc(NC(=O)C2(c3ccccc3Cl)CC2)ccc1Oc1cccc(Cl)c1` has an inhibition of -8.97% (ADRA1B (Homo sapiens, UniProt P35368); cell-free assay; 10 µM).
